# Results collected from several papers.
# Parts stem from different laboratories: compare values within a part only.

# Set 1
# Target: Centromere-binding protein 1, full length, His-tagged (CBF1, Saccharomyces cerevisiae, UniProt P17106, residues 1-351)
# Chain of UniProt P17106 (whole entry, looked up): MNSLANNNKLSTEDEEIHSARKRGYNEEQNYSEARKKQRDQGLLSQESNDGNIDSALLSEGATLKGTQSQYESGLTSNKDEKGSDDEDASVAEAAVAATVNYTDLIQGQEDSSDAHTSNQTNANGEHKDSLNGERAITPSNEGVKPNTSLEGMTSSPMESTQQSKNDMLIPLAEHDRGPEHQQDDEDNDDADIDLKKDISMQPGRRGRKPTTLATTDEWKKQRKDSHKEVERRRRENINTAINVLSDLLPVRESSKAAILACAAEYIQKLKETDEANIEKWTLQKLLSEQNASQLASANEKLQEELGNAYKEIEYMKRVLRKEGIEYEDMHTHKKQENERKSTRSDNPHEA
# Technique: competition protein-binding microarray
# Form: double-stranded DNA, one strand shown
# Sample: in vitro
# Concentration: 2 µM
# Setting: whole 60-bp probe, lowest competitor level
# Together with: Pho4 competitor, 0.05 µM
# Reading: higher = stronger binding
# All sequences stand within: … GTCTTGATTCGCTTGACGCTGCTG
Strand,fluorescence intensity [a.u.]
CATACCCAACCTTGTTAGGTGGGTGAAGATATTTGT,56.5
CGGGGTTAAGTTTGTCGGGTGGGTGGCTTGCAGCAG,61.4
TGCGCAACAACTTGGTGAGTGGGTGTATGTCTAGAA,65.3
GGTTATGGCCTGGATGACCTGTTTTCAATTCAGACA,67.9
ATGTCAATGGTACAGCACGTGGTAATTACAGCGGTG,1710
GAAAATGGCCCAAGTAGCGTGACAAGTCTCTGGTAA,163
AAAGCGGTAATTTGCGAGGTGGGTGCAGATATCTAT,74.5
GTCTTGTCTCATTGTCACTGTACTTTCCCCACTTCA,104
AAATTACTAAGTTGTAGGGTGGGTGACGCCGTATGA,65.4
ACAGGCTTTTACCATCACCTGAGCAGCAGCAAGAAA,256
GTCAACAAAGACCCCATCATGACAAAAGCTCAGAAG,67.9
GTCTTGTCTCATTGCCCAGTGGGTGTCCCCACTTCA,68.4
CCGGTAACCTACCGTCACGGCCAGATTTTTTCCAAG,75.4
TGCGCAACAACTTGCTTAGTGGGTGTATGTCTAGAA,64.9
AGCGTAATCTATACCCACGTAAACCCACTGAGATAA,78.7
CGCAGTGAACTTGGCCATGTGGGGCCATCCCAAGAT,69
CGTCCTAGTGATTTTCACGTGCGGTCCATGAGGAAG,804
GTCTTGTCTCATTGTGAGGTGGGTGTCCCCACTTCA,102
ATTGATCCCTGCTGTCATGCCCCTCACCTTCATTCG,63.1
CTTAACAGCAACTTGAACGTGAAGATGAACTTTACT,104
TGCGCAACAACTTGGGTCGTGGGTGTATGTCTAGAA,55.9
TGCGCAACAACTTTTCACGTGTGGTTATGTCTAGAA,683
AAGACGGCACTATTCCATGTGACGGATTCCCATCTG,240
TCCGAAACGTCGAGTCACGGGTCCTGACAAGCAACC,569
CTAACGAAGGTTTTTCACGTGCACTACAAGCCAAGT,862

# Set 2
# Target: Histone acetyltransferase KAT6A, winged helix 2, GST fusion (KAT6A, Homo sapiens, UniProt Q92794, residues 85-181)
# Technique: protein binding microarray
# Form: double-stranded DNA, one strand shown
# Sample: in vitro
# Concentration: not given
# Setting: 8-mer, flanks averaged, mean of 2 arrays, mostly near background
# Relative to: not given
# Reading: higher = stronger binding
# Residues (chain): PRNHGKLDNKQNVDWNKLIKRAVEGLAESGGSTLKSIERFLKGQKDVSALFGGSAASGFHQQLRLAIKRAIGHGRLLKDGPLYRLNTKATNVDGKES
Strand,E-score
GAATTATA,-0.0118
ACACTACA,0.141
ACCAGCTG,0.0895
AAGGGATT,-0.0229
TGTGCACA,-0.238
ATTCCGGC,0.206
CCGGCTCA,0.253
CACCTGCA,0.103
CGCGTCAG,0.0187
ATGTGTCG,-0.11
AGCCACTG,0.0999
ATCGAGGA,0.07
GGGCACGA,0.0698
CAACCAAG,0.0757
AGATGAAA,0.0703
CCCATTAC,-0.225
TCACCCAA,-0.0906
ATAGATGA,-0.0805
ACGGCCTC,0.0798
GGCGACAC,0.0876
ACGGTCGG,-0.0294
GCTTTGCA,0.0524
CAATAATC,-0.126
AGGCAGTA,-0.0173
TCATAAAA,0.0829

# Set 3
# Target: POU, POU domain (Salpingoeca helianthica)
# Technique: Spec-seq
# Form: double-stranded DNA, one strand shown
# Sample: in vitro
# Concentration: not given
# Setting: whole probe, mean of replicates
# Relative to: not given
# Reading: lower = stronger binding
# All sequences stand within: GAGTCGTCTCGTCAGCAC … CCGTAGAGCACTCAGGTC
# Construct (chain): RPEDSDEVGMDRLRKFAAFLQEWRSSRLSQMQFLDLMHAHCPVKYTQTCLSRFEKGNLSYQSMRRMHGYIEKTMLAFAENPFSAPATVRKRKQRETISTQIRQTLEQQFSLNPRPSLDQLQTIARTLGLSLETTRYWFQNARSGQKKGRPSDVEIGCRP
Strand,relative binding energy
ATTGTGAT,1.14 ln ratio
GTATTAAT,-0.108 ln ratio
ATACTAAT,0.816 ln ratio
ATGCGTGA,1.26 ln ratio
ATGCTTTT,0.971 ln ratio
ATGCGAAC,1.26 ln ratio
AGATTAAT,-0.0884 ln ratio
ATATCTAT,0.86 ln ratio
CCACTAAT,0.65 ln ratio
ATGCTTAA,0.311 ln ratio
ATGCTCGT,1.15 ln ratio
TTCTTAAT,0.439 ln ratio
ATGCTCTC,1.02 ln ratio
ATGCGGAA,1.37 ln ratio
ATAAAAAT,0.761 ln ratio
ATGCGATG,1.37 ln ratio
ATGCTGGG,1.36 ln ratio
CACGTAAT,0.811 ln ratio
ATGAAAAT,0.937 ln ratio
ATGCATCC,1.12 ln ratio
ATGCTGCC,1.34 ln ratio
ATCGCAAT,1.52 ln ratio
ATTTCGAT,1.52 ln ratio
ATCAAAAT,1.08 ln ratio

# Set 4
# Target: RNA binding protein fox-1 homolog 2, RRM domain, GST-SBP tag (RBFOX2, Homo sapiens, UniProt O43251-10, residues 100-194)
# Technique: RNA Bind-n-Seq
# Form: RNA
# Sample: in vitro
# Concentration: 365 nM
# Setting: natural RNA segment, single round, ends assumed
# Relative to: no-protein control
# Reading: higher = stronger binding
# All sequences stand within: GGGAGUUCUACAGUCCGACGAUC … UGGAAUUCUCGGGUGCCAA
# Target sequence (chain): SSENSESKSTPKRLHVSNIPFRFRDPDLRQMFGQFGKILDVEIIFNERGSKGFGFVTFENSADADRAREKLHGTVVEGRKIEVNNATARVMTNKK
Strand,RBNS enrichment (R)
UAAUGUUUUUACAGCAACAAUAUGAAAUAUAUUUUAUAAGGAAUAAAAUGGUACCUUGUCUGAUUUAUGUGUGCCUGUCCUUUGCCCCUUCCCUUGCAACAAAUAAGAUU,2.31
CAGGAGAAUAGGGAAUGAGAAAUAGAAAUCCAAGGCUGAAGCCAAAAGUAAGGAGGGUGGCCAAAUGGUAAACUAUUGGUACUUGUUUUCUACCUCCUAAAAAUGUAGCU,1.8
GUGCUCUGAUAUGCUCCUUGACUGAAACUUUAAGGGGAUCUCUCCCAGAGACUUGACAUUUUAGCUUUAUUGUGUCUUAAAAACAAAAGCGAAUUAAAACACAACAAAAA,0.742
UCCUUCCCUCCCCGCAACCACCCCAGGCUCCCCUGGGAGGCUGCAGUUGUGGUACACGUCCCCGGUGCUGGGUUGGCCGUGACUCGGGGGCGGGGCGAUCGGGUCUCAGC,0.385
CCAGUUCAUAAUUUAUAAAGAAGCAGUUUGUGUGUGUGUGGGUGUGUGUGUGCUCGCGAGCGCCAUCCACACUGGUCCUUUAGCAUUGUUUCCAUCAUAUUGCAGUGUAU,1.89
AUUAAGCAUAAUAUUUUUUCCAUACUCAGAAUGAAAAUAAACUGGAUAUUACCUUUUUUUUUUUUUUUGUACAAAUUUAAAUACUAGGUCCAGGCUGGAAGAAUUGUAAC,0.445
GAAUUACAAACUUUAAACACUUUUUAAAUCUUCAAAAUAUUUAAAACAAAUUUAAAGGGCCUGUUAAUUCUUAUAUUUUUCUUUACUAAUCAUUUUGGAUUUUUUUCUUU,1.25
CUCCUGGGGUUUCGUUUCUAUGUGAGAGACGGGGACCCGGUUCUGUUGUGUGCAGCUUUAGCGGCAUCAGGACAGCUUCCAGCUUGCAAUGAUUGCUGCUGACAGGAACA,0.313
UUGAAUUUCGUAUUCUUUCAUUCCACUGUGUAAAGUGCUAGACAUUUUCCAAUUUAAAAUUUUGCUUUUUAUCCUGGCACUGGCAAAAAGAACUGUGAAAGUGAAAUUUU,0.548
ACAGAGGAGGAGAUGGAGCUCUAGACACCCGUUCUGCUCUAACUUGACAAGUCGGAGAAGGCUCCUGCGUUCAGAAAUGAGCCUGCCUGCAGAGUAUAGGGGCCUGAAAG,0.628
UCCCAGCGCCUCAGGCCCCGCGUUUGUGUCUGGAGUCUCCCCCCGGGGAGAGGACACUGGCCCCUCGCACUCCAGAAAAGCCAUGCCAGCUGGGCUCGUUGACAAAGGGU,0.344
CUUCUGUUUCUCAGGCUCUGGGGAAAGGAAUCUCCCUCUCCUCUCACUUGAUUCCAAGUGUGGUUGAAUUGUCUGGAGCACUGGGACUUUUUUUCUCUUUUCCUUGAUGG,0.436
